Experimental data gathered from unrelated publications.
Numbered parts are unrelated; each lists some results of a single study. Changes are numbered by the printed parent chain.

Set 1 — target: CCND3, cyclin fold, Cln2 fusion (human); method: yeast growth competition, sequencing; medium: yeast; notes: strong parent motif; baseline: not given; reading: higher = stronger binding
Starting sequence: INSM1 docking peptide (human); PKAIRKLHFEDEV
Under “normalised enrichment score”, `D11R` is recorded as 0.0939.
For `H8N`, “normalised enrichment score” read 1.55.
`K6W` — result for “normalised enrichment score”: 0.686.
`H8T`: “normalised enrichment score” 1.67.
For `A3N`, “normalised enrichment score” read 0.124.
`H8R` — result for “normalised enrichment score”: 0.433.
`E10S`: “normalised enrichment score” 0.998.

Set 2 — method: universal PBM; form: double-stranded DNA, one strand shown; medium: in vitro; tested at: not given; reading: higher = stronger binding
Target: Sal-like protein 4, full length isoform B (SALL4, Homo sapiens, UniProt Q9UJQ4-2, residues 1-616)
Notes: 8-mer, flanks averaged, mean of replicates
Construct (chain): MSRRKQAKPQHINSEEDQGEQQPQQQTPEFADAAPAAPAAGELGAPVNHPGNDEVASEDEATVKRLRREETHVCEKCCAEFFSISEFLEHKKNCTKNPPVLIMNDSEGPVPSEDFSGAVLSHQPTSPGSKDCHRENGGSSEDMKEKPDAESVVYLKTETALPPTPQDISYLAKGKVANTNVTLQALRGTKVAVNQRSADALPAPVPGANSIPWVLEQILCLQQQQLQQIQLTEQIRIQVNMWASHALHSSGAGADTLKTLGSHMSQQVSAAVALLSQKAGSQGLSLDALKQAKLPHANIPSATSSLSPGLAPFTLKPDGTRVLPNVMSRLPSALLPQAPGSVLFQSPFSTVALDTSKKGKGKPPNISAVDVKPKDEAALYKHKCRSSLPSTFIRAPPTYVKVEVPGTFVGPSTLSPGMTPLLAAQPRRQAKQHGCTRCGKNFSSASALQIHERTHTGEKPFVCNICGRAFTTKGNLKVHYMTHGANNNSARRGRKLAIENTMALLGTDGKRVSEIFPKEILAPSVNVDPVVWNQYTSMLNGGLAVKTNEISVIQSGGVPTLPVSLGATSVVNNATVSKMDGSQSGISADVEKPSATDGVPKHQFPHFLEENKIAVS
For `CATGTGAG`, the E-score was 0.024.
`GACTAGTA` has an E-score of 0.154.
The E-score of `CCACGAGC` is reported as -0.218.
The E-score of `ACCACGGG` is reported as -0.27.
`ATTGAAAT` has an E-score of 0.332.
`AGCTGGGC` has an E-score of -0.277.
The E-score of `GCCCTGAC` is reported as -0.256.
With `AACGAGTC` the E-score was 0.0472.

Set 3 — method: protein-binding microarray; form: double-stranded DNA, one strand shown; medium: in vitro; tested at: 940 nM top; notes: 60-bp whole probe; with: salmon DNA 0.4 mg/ml; baseline: random background probes; reading: higher = stronger binding; all sequences stand within: GCCTAGCACG … GTCTTGATTCGCTTGACGCTGCTG
Target: Interferon regulatory factor 5, full length, phosphomimetic (IRF5, Homo sapiens, UniProt Q13568-2, residues 1-514, S451D/S453D/S456D/S462D)
`ACGGTCTCGGACTGGTGACGTGCTAG`: “fitted relative affinity” 0.738 z-score.
`ACTATATCAGTCTCGAGACGTGCTAG`: “fitted relative affinity” 1.13 z-score.
`GTCTTCTGGGCTGTTTGATCGTGCTA` — result for “fitted relative affinity”: 0.0317 z-score.
`ACGGTCTCCATCTCCTGACGTGCTAG` — result for “fitted relative affinity”: 0.432 z-score.
`TCGATTTCAGTATCGAGACGTGCTAG`: “fitted relative affinity” 4.49 z-score.

Single results of other studies
For `PhoQ, residues 284 288 289 292 302 303 SSLVEF`, the fold induction was 8.23 (PhoP, residues 12 14 15 18 19 NHTVL (Escherichia coli, UniProt P23836); Sort-seq, measured: YFP reporter; E. coli; PhoQ-PhoP variant library, with: 10 µM Mg2+; baseline: high Mg2+ state, higher = stronger signaling).

Excerpt of the above (set 2):
`AGCTGGGC` has an E-score of -0.277.
The E-score of `GCCCTGAC` is reported as -0.256.
With `AACGAGTC` the E-score was 0.0472.
